# Measurements from different studies.
# Protocols differ between the studies behind these lines.
# Ugcg: Ceramide glucosyltransferase (Ugcg, Mus musculus, UniProt O88693)
# UniProt O88693, sequence (whole entry, looked up): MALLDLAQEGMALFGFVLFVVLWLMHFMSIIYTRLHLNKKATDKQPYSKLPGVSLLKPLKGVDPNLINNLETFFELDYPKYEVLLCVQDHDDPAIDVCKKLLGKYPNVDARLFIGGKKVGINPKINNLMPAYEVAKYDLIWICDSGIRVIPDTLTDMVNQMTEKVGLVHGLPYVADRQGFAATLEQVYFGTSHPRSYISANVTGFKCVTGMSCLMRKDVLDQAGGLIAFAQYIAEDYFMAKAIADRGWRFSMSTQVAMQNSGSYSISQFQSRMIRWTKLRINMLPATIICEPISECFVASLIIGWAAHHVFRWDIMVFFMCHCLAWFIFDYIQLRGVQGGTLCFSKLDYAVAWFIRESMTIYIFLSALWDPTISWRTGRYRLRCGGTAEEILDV
# UniProt Q13153, sequence (whole entry, looked up): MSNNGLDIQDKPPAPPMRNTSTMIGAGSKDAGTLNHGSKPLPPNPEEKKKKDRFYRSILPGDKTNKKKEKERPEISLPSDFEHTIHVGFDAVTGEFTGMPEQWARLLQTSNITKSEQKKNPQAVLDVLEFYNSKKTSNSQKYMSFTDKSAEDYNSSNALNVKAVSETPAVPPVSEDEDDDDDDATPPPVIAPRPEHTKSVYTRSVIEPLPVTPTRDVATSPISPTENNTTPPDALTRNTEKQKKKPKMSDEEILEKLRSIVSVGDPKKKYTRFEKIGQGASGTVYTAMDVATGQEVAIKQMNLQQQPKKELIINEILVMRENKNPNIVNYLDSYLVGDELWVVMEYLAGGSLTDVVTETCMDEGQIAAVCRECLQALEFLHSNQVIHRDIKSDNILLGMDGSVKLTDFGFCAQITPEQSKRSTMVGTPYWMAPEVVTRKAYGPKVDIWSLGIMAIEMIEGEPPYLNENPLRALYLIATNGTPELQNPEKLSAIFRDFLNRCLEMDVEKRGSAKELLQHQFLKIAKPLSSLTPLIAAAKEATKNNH
# UniProt P51617, sequence (whole entry, looked up): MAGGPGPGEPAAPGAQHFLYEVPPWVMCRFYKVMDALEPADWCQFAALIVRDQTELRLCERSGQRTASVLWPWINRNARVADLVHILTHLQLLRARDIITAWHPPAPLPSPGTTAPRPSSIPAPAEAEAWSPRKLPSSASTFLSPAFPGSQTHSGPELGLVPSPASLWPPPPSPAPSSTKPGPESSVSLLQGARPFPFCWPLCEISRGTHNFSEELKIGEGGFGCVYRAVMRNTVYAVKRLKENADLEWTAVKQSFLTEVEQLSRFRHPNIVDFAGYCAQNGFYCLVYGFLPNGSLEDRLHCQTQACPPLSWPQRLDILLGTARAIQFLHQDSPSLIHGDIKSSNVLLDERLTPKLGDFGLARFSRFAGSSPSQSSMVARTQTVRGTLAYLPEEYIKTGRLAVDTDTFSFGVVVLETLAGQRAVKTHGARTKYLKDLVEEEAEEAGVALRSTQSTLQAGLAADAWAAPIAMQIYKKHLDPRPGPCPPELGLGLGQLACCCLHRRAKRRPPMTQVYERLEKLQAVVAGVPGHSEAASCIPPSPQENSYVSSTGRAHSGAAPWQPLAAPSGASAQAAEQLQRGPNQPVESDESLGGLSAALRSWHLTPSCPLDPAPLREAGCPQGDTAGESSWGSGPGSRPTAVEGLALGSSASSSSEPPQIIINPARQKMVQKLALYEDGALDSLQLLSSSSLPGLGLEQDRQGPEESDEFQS
# UniProt P56818, sequence (whole entry, looked up): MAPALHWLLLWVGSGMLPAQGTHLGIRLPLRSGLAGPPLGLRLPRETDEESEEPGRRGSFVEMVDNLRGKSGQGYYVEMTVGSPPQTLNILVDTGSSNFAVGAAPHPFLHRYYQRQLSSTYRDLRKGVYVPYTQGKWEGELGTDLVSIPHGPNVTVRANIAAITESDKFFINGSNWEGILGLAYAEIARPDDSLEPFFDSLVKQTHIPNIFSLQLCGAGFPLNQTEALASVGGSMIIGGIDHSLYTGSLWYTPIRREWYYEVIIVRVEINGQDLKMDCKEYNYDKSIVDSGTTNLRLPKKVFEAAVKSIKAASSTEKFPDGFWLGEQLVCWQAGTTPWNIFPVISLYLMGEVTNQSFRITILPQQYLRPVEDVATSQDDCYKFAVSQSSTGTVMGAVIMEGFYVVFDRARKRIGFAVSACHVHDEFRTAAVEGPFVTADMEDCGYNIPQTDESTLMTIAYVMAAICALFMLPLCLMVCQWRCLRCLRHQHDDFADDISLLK
# UniProt P55211, sequence (whole entry, looked up): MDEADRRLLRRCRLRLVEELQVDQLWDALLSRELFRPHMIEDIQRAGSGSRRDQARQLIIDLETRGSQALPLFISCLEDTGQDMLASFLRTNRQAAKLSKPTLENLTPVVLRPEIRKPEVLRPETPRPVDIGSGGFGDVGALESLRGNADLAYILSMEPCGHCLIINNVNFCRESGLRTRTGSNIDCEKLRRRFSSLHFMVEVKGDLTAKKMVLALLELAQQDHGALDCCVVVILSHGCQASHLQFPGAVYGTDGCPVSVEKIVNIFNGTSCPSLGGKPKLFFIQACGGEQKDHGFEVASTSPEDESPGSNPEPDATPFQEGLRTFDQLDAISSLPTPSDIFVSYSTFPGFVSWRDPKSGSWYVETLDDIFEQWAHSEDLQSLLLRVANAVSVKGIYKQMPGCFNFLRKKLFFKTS
# UniProt P35346, sequence (whole entry, unmodified, looked up): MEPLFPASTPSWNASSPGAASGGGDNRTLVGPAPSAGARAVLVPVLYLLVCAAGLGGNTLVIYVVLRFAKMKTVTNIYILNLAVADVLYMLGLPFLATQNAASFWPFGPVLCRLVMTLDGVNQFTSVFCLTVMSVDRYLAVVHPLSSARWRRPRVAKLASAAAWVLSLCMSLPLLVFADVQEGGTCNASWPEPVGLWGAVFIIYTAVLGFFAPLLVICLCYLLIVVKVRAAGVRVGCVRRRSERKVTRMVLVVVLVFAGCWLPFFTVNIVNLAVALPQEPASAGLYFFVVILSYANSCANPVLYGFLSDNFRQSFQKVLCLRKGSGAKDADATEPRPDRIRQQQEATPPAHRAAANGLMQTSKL
SMILES,target or system,assay,system,setting,how to read,endpoint,value
CCCCCCCOCCCCCN1C[C@H](O)[C@@H](O)[C@H](O)[C@@H]1CO,Ugcg,"enzyme activity, inhibitor, fluorescence",,,,IC50,50 nM
CC(C)=CCC1CC2=C(OC(C)(C)C(O)C2)C2(C(=O)C(C)C)C1(C)CCC1C(C)(C)OC(=O)C12O (stereo not drawn),"Beta-secretase 1 (Mus musculus, UniProt P56818)","enzyme activity in cells, inhibitor",,,,IC50,1030 nM
CNS(=O)(=O)Nc1nccc(Cc2c(C)c3ccc(Oc4ncccc4F)cc3oc2=O)c1F,OVCAR-8,cell viability,,7 days,,IC50,101 nM
COCC1CN(C2CCN(c3cc(OC)c(Nc4ncc(Br)c(Nc5ccc6c(c5P(C)(C)=O)OCCO6)n4)cc3C)CC2)C1,"Epidermal growth factor receptor (EGFR, Homo sapiens, UniProt P00533, T790M)","enzyme activity, inhibitor, TR-FRET",,,,IC50,0.46 nM
C=CC(=O)Nc1cc(Nc2ncnc(Nc3ccccc3S(N)(=O)=O)n2)c(OC)cc1N(C)CCN(C)C,"Epidermal growth factor receptor (EGFR, Homo sapiens, UniProt P00533, L858R/T790M)","enzyme activity, inhibitor",,,,IC50,0.61 nM
Nc1ncc(-c2cc(-c3cnn(CC(F)(F)F)c3)ncc2F)nc1C(=O)NC1CNCC(F)C1 (stereo not drawn),PRKCD,KINOMEscan,,1 µM,reference: DMSO control,remaining binding,75%
Cc1ncsc1-c1ccc(C(C)NC(=O)C2CC(O)CN2C(=O)C(NC(=O)CCCCCCCCCCN2CCCC(Nc3ncc(Cl)c(Nc4ccccc4S(=O)(=O)C(C)C)n3)C2)C(C)(C)C)cc1 (stereo not drawn),22Rv1,"RNA-seq, item: ZNF347 mRNA",,concentration not given,reference: DMSO,log2 fold change,-1.98
CCOC(=O)C[C@@H](C#N)NC(=O)[C@@H]1CCCN1C(=O)[C@@H](NC(=O)c1ccc(N)c(Cl)c1)C(C)(C)C,"Caspase-9 (CASP9, Homo sapiens, UniProt P55211)","enzyme activity, inhibitor",,,,IC50,1010 nM
Cc1nn(-c2cccc(N)c2)c(=O)c2cnc(Nc3ccc(N4CCNCC4)cc3)nc12,"Serine/threonine-protein kinase PAK 1 (PAK1, Homo sapiens, UniProt Q13153)","enzyme activity, inhibitor",,,,IC50,2130 nM
C=C(NC(=O)c1csc(-c2nc3c(cc2O)-c2nc(cs2)C(=O)NC(C(C)O)C(=O)NC(=C(C)OC)c2nc(cs2)C(=O)NC2c4nc(cs4)C(=O)NC(COC(=O)c4c5c6c(cccc6n4O)COC(=O)C(OC4CC(C)(O)C(N(C)C)C(C)O4)C2OC5)c2nc-3cs2)n1)C(N)=O (stereo not drawn),,,"Sprague-Dawley rat, both sexes, plasma","intravenous infusion, 2 mg/kg single dose",,volume of distribution,7750 mL/kg
CCOc1cc(CN2CC3(CC(N4CCC(C(=O)O)CC4)=NO3)C2)cc(OCC)c1-c1ccc(F)cc1,"Somatostatin receptor type 5 (SSTR5, Homo sapiens, UniProt P35346, W190A)","cAMP level, agonist, GloSensor",AD293,"W190A mutant, with: CST17 EC80 and forskolin",,IC50,1950 nM
CCCCCN1C[C@@H](O)[C@H](O)[C@H](O)[C@@H]1CO,Ugcg,"enzyme activity, inhibitor, fluorescence",,,,IC50,15000 nM
C=CC(=O)Nc1cccc(Cn2ncc3cnc(Nc4cnn(CCOC)c4)nc32)c1,PRKCQ human,"binding, KINOMEscan",,100 nM,lower = stronger binding,percent of control,100%
OC[C@@H]1[C@@H](O)[C@H](O)[C@@H](O)CN1CCCCCOCCC12CC3CC(CC(C3)C1)C2,Ugcg,"enzyme activity, inhibitor, fluorescence",,,,IC50,5000 nM
CCn1nc(Cl)c2c1-c1cnc(N)c(c1)O[C@H](C)c1cc(F)ccc1-c1nn(C)cc1C2,"Interleukin-1 receptor-associated kinase 1 (IRAK1, Homo sapiens, UniProt P51617)","enzyme activity, inhibitor, radiometric",,,,IC50,1020 nM

# Repeated from above:
SMILES,target or system,assay,system,setting,how to read,endpoint,value
C=C(NC(=O)c1csc(-c2nc3c(cc2O)-c2nc(cs2)C(=O)NC(C(C)O)C(=O)NC(=C(C)OC)c2nc(cs2)C(=O)NC2c4nc(cs4)C(=O)NC(COC(=O)c4c5c6c(cccc6n4O)COC(=O)C(OC4CC(C)(O)C(N(C)C)C(C)O4)C2OC5)c2nc-3cs2)n1)C(N)=O (stereo not drawn),,,"Sprague-Dawley rat, both sexes, plasma","intravenous infusion, 2 mg/kg single dose",,volume of distribution,7750 mL/kg
CCOc1cc(CN2CC3(CC(N4CCC(C(=O)O)CC4)=NO3)C2)cc(OCC)c1-c1ccc(F)cc1,"Somatostatin receptor type 5 (SSTR5, Homo sapiens, UniProt P35346, W190A)","cAMP level, agonist, GloSensor",AD293,"W190A mutant, with: CST17 EC80 and forskolin",,IC50,1950 nM
